Experimental data collected from several papers.
Numbered parts are unrelated; each lists some results of a single study.

Block 1 — technique: universal PBM; molecule type: double-stranded DNA, one strand shown; matrix: in vitro; tested at: not given; direction: higher = stronger binding; endpoint: E-score
Target: Sal-like protein 4, full length isoform B (SALL4, Homo sapiens, UniProt Q9UJQ4-2, residues 1-616)
Notes: 8-mer, flanks averaged, mean of replicates
Target sequence (chain): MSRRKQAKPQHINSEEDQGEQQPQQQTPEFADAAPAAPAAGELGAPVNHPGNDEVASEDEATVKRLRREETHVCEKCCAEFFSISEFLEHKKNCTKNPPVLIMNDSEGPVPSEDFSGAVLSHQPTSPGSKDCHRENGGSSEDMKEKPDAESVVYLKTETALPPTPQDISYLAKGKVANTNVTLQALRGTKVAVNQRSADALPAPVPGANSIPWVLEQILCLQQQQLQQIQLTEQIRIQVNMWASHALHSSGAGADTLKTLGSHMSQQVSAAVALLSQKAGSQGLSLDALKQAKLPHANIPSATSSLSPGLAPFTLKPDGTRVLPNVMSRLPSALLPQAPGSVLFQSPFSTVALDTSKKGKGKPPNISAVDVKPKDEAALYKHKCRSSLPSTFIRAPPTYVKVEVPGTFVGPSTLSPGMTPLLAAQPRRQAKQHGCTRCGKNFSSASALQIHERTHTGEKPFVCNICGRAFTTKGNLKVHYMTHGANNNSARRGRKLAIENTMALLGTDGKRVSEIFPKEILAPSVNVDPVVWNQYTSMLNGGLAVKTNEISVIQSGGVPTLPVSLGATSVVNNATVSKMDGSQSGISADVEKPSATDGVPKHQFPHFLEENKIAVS
CTACTATA: 0.253
GGTCCCAA: -0.194
ATCAAGAC: 0.0249
GGTAATAC: 0.144
GACCATGC: -0.0154
CGTCCTGA: -0.151
GTCGTTTA: 0.0892
TAGCGCGA: -0.159

Block 2 — technique: Spec-seq; molecule type: double-stranded DNA, one strand shown; matrix: in vitro; tested at: not given; notes: whole probe, mean of replicates; reference: not given; direction: lower = stronger binding; endpoint: relative binding energy; all sequences stand within: GAGTCGTCTCGTCAGCAC … CCGTAGAGCACTCAGGTC
Target: POU, POU domain (Salpingoeca helianthica)
Target sequence (chain): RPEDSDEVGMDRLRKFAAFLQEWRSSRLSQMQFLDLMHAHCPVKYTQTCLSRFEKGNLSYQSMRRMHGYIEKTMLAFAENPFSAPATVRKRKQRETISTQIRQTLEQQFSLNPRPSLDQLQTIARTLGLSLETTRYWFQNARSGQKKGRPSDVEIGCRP
CCCGTAAT: 0.668 ln ratio
ATGCCGTG: 1.29 ln ratio
ATGCACTT: 1.07 ln ratio
ATGAGAAT: 1.21 ln ratio
ATGCCGCA: 1.25 ln ratio

Block 3 — technique: protein-binding microarray; molecule type: double-stranded DNA, one strand shown; matrix: in vitro; tested at: 2200 nM top; notes: 60-bp whole probe; added: salmon DNA 0.4 mg/ml; reference: random background probes; direction: higher = stronger binding; endpoint: fitted relative affinity; all sequences stand within: GCCTAGCAC … GTCTTGATTCGCTTGACGCTGCTG
Target: Interferon regulatory factor 7, full length, phosphomimetic (IRF7, Homo sapiens, UniProt Q92985, residues 1-503, S471D/S472D/S475D/S476D/S477D/S483D/S484D/S487D)
Target sequence (chain): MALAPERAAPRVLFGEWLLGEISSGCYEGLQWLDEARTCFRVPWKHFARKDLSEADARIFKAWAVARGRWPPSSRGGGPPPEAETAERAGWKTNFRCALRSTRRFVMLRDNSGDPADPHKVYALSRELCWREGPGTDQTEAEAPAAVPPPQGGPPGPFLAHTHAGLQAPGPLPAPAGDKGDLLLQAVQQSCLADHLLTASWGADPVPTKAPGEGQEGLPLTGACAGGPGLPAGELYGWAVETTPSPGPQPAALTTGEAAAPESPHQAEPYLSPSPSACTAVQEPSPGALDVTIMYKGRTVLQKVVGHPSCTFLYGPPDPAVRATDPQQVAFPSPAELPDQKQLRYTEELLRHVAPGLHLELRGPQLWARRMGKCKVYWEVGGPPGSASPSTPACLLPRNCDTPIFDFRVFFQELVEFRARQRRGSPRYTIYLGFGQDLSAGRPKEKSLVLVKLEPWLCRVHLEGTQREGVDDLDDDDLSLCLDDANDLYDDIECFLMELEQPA
GACGGACTGTTTATCCTGACGTGCTAG: 0.562 z-score
TCAGATTTCGGGTTTCGATTAGTGCTA: 6.6 z-score
GACGGTATCGGGTTTCGGGATGTGCTA: 2.14 z-score
TTAAGACTGGGACTGGGTTAGTGCTAG: -0.889 z-score
CTAGGTCTCGGTCTCGGTTAGTGCTAG: 0.776 z-score
CCCCTCTTCTGGATCTCAGAGTGCTAG: 0.514 z-score
GACGCACTGAGTCTCGAGACGTGCTAG: 0.224 z-score

Other studies, line by line
PhoQ, residues 284 288 289 292 302 303 SACGEM — fold induction (PhoP, residues 12 14 15 18 19 HEGLL (Escherichia coli, UniProt P23836); Sort-seq, refers to: YFP reporter; E. coli; PhoQ-PhoP variant library, added: 10 µM Mg2+; reference: high Mg2+ state, higher = stronger signaling): 1.44
